Experimental data collected from several papers.
Every numbered part comes from another study and shows a few of its results, in no order.

Sample 1
Target: RING finger protein unkempt homolog, zinc fingers 1-6, SBP tag (UNK, Homo sapiens, UniProt Q9C0B0, residues 30-357)
Chain of UniProt Q9C0B0 (30-357, looked up): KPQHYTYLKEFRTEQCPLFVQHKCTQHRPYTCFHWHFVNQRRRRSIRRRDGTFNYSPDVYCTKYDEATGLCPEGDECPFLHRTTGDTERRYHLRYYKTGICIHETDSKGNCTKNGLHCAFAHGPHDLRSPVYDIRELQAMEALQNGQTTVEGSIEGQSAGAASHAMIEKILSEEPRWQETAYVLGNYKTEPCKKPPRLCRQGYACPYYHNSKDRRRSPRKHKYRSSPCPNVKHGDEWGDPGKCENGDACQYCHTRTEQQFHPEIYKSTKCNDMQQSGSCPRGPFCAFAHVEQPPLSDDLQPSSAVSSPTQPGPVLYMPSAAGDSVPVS
Method: RNA Bind-n-Seq
Molecule type: RNA
Matrix: in vitro
Tested at: 100 nM
Notes: RNA with constant flanks, vertebrate orthologous sites, ends assumed
Baseline: input RNA pool
Reading: higher = stronger binding
All sequences stand within: GGGAGUUCUACAGUCCGACGAUC … CAACAGAGGAUUGAGCAUCA
Oligonucleotide	bound/input enrichment [ratio]
GAAACAAUGGCUCCUACUCUAUUACAAAGACAAGAAACAGUCCCACAAGUUAAUAAUAGAUAGCUAUUUUUGAAAUUCAAAUAUUUAAAUUUUGUAAAUCAGCUGUUUGGGAUGUCAUGU	0.723
UGCAUUAUUUGACCAGAGUGGAAGUGACAGAGUUUGAAGAUAUUAAAUCAGGUUACAGAAUAGAUUUUUAUUUUGAUGAAAAUCCUUACUUCGAAAAUAAAGUUCUCUCCAAAGAGUUUC	0.332
UAUUUUCUUAUUUUAGGUAUCACUGCCCAAUGCCUAAGAUCUUUUAUGUCCAGCUGACUGUAGGAAAUAAUGAAUUUUUUGGGGAAGGAAAGACUCGACAAGCUGCUAGACACAAUGCUG	1.41
GCUCUAGUUCUUAACAACCGACACUCCUAAAAGAUUUAGAAAAAAGUUUACAACAUAAUCUAGUUUACAGAAAAAUCUUGUGCUAGAAUACUUUUUAAAAGGUAUUUUGAAUAUCAUUAA	0.636
AAAUAUACUUCAUGCCAUGGACUCCGUAUCGCACUGAUACUUUGAUAGAAUAUGCUUCUUUGGAGGACUUCCAAAAUGGACGCCAGCAGACAACGUAUAAACUCCCAAAUCGAGUGGAUG	0.966
UUGUUUUGUACAGGGCAUUCUCUGUACAAAUUUGUUGUGGUUAUAAAACAAUUAGCAAAACAGCUUACAUUUGUAUUUAUUUUCUAUUCCAUACCUCUUCCCCAUGUUUUUUCCCCUCAA	0.673
CAUUGUAGUAAUGAAAAUGAUCUUAAUUCUGCACGACCCACAGUAAUAACUAGUUUACAUUAGCAGAAUCGUUUACUUUCACUUUUUAAAUUAUCUGCUUUUUCUGCUGCCUGAACCCAA	1.29
UACUGUUGUUAAGCACUGUUCCAGACCGUGUCUGACUUUAGUGUAACCUAGGAGAUUUUAUAGUUUUAUUUUAAUGGAAUCCUGCCUGACGCAGAGCAGUGGGGAGAGCAGUGUCUUCUG	1.96

Sample 2
Target: Ras GTPase-activating protein-binding protein 1, C-terminal RGG region (G3BP1, Homo sapiens, UniProt Q13283)
Chain of UniProt Q13283 (whole entry, looked up): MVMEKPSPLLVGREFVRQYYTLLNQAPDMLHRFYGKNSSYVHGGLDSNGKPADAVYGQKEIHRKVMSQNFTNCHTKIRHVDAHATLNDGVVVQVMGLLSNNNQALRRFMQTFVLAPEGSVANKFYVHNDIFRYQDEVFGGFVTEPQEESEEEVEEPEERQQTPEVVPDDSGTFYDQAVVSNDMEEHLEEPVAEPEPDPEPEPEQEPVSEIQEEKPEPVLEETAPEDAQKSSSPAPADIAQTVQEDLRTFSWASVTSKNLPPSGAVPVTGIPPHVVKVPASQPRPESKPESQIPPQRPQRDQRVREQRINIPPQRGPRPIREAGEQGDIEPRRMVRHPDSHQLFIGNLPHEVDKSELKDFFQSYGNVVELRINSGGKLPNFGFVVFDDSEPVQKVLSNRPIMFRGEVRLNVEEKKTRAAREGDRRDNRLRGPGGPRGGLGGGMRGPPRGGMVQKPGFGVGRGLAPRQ
Method: RNA Bind-n-Seq
Molecule type: RNA
Matrix: in vitro
Tested at: 1 µM
Notes: whole 134-nt RNA, ends assumed
Together with: 150 mM KCl
Baseline: input library
Reading: higher = stronger binding
All sequences stand within: GGGAGUUCUACAGUCCGACGAUC … UGGAAUUCUCGGGUGUCAAGG
Oligonucleotide	log2 enrichment
CACAGACAACACGCACCCACACAGACACAGAGGGAAGGGGUUGGGAUGGGGACAGAGUGCACAGCAGGGCGGGGUAGGACCCCAGCCCCU	0.0545
UGUGAGAUUAAACUUGCCCCCAAACGAUCUCGUUUGGAGACUAGAGCUGGAGAAGAAGAUGAAGGAGAAGAGGAUUCUGAUUCUGAUUAU	-1.65
CUGUGCUACACAUCGUAUGUACCGAAUCGGGGCCCCCCCGGCCCCCCCGGGGCCCCCCCGGGAAAGUAUUAUGUUACGCCGUUCGGAUCU	-1.93
UCAAGUCCUGUGCUACACAUCGUAUGUACCGAAUCGGUUUGGUUUGGGUUUGGGAAAGUAUUAUGUUACGCCGUUCGGAUCUGCACUUCC	-1.11
UAACUUUAGAGGAGGAUCUGAUGGAUAUGGCAGUGGACGUGGAUUUGGGGAUGGCUAUAAUGGGUAUGGAGGAGGACCUGGAGGUGGCCA	-0.63
UGUGCUACACAUCGUAUGUACCGAAUCGGGGUUUUUUUGGGGUUUUUUUGGGGUUUUUUUGGAAAGUAUUAUGUUACGCCGUUCGGAUCU	-0.703
GUCCUGUGCUACACAUCGUAUGUACCGAAUCGGGGCCCCCGGCCCCCGGCCCCCGGGGAAAGUAUUAUGUUACGCCGUUCGGAUCUGCAC	-1.35
AGGUCAUGGAUCAAAAAGAACAUAAAUUGAAUGGGAAGGUGAUUGAUCCUAAAAGGGCCAAAGCCAUGAAAACAAAAGAGCCGGUUAAAA	-2.16
CCUCAAGUCCUGUGCUACACAUCGUAUGUACCGAAUCGGGUGGUGGGUGGGGAAAGUAUUAUGUUACGCCGUUCGGAUCUGCACUUCCAG	0.77

Sample 3
Target: Prothrombin, mature alpha-thrombin (F2, Homo sapiens, UniProt P00734)
Method: aptamer microarray, sandwich
Molecule type: DNA with 2'F-ANA
Matrix: in vitro
Tested at: 200 nM
Notes: whole 15-mer aptamer, many near background
Together with: Cy3 exosite-II aptamer, 400 nM
Reading: higher = stronger binding
Oligonucleotide: GGTTGGTGTGGTTGG
Modification	mean fluorescence intensity [a.u.]
2'F-ANA at 3 7 12 13 15	1290
2'F-ANA at 1 2 4 7 8 9 10 14 15	47.5
2'F-ANA at 2 3 4 6 7 8 9 10 11 12 15	234
2'F-ANA at 2 3 5 6 9 11 13	68.4
2'F-ANA at 4 5 7 9 10 11 13 14 15	53
2'F-ANA at 4 6 7 8 9 10 11 12 14	61
2'F-ANA at 1 5 6	54.1
2'F-ANA at 1 3 4 5 6 7 10 12 15	50.4
2'F-ANA at 1 2 3 5 6 7 8 9 10 12 14	59.5
2'F-ANA at 8 9 12 13 14	234
2'F-ANA at 3 5 6 8 10 11 13 14 15	57.3
2'F-ANA at 2 5 6 10 11 13 14 15	48
2'F-ANA at 2 3 4 5 6 7 10 14	47
2'F-ANA at 1 2 5 7 8 9 11 12 14 15	48.5
2'F-ANA at 6 10 12 13 14 15	101
2'F-ANA at 1 2 4 5 6 10 11 14	48.4
2'F-ANA at 1 2 3 4 5 6 7 9 11 12 13 14 15	55.8
2'F-ANA at 1 2 5 6 8 9 10 11	45.7
2'F-ANA at 9 11 12 14 15	205
2'F-ANA at 2 5 6 8 10 13 14	50.2
2'F-ANA at 1 2 4 9 10 13 14	40.6
2'F-ANA at 1 4 8 9 10 11 13 15	46.8
2'F-ANA at 2 3 4 5 9 14 15	51.3

Sample 4
Target: RNA binding protein fox-1 homolog 2, RRM domain, GST-SBP tag (RBFOX2, Homo sapiens, UniProt O43251-10, residues 100-194)
Method: RNA Bind-n-Seq
Molecule type: RNA
Matrix: in vitro
Tested at: 365 nM
Notes: natural RNA segment, single round, ends assumed
Baseline: no-protein control
Reading: higher = stronger binding
All sequences stand within: GGGAGUUCUACAGUCCGACGAUC … UGGAAUUCUCGGGUGCCAA
Target sequence (chain): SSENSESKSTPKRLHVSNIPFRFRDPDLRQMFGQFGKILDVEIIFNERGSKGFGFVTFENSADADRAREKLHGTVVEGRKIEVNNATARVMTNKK
Oligonucleotide	RBNS enrichment (R)
AAGAAGGCAAGGACUGCCUGAGAGGCUGCGUUGACCCUACUGAUGUGGGUCUUGGGAUGGGCUGGAACAGGGUUCCUGCCUGAGUAGGUGGAACUGGCAACCUUGAAGGG	0.965
ACCGCGAGCACAUUGCAGCCCCAACGGUGGCCCAUCUUCAGCGGAGAGCGAGAACCAUUUUGGAAACUGUAAUGUAACUUAUUUUUUCCUUUAACCUCGUCAUCAUUUUC	0.215
CCUUAGCCAGCCAGUGACAAGUGAAUCCAGACGUCACCCAUGUGUUUUGGAACAUUUAUGUAAGAUUGAAAUGUAUUUGAGAACUGCAUUAAAACUUUUAACUAAAGCCC	0.565
GGGCUGAAGGUCCCUUGGAGCCCAGUGUCUAGUCACACCUUUUUGCUCUGGGCCCAUGAGGCCUACUUCUUCCUUUUCUCAUGGAAUCCUGGGUAGAAUCUUAAUAAUAG	0.264
UUGAUGCUAAGCCCGGCAGCCUGUGUUUCAUCUACAGGAUGCACAACAUAAAAGAAAAGAUCUGAUUCCCGCAGGUUCUCUUCUGACCUACACACACACACACUAAAAUA	0.792
GUCCUGUCCCCUGUAGCUGCUUUCUUAGAUGGAAACAGGCUAACGAAGAGAGGGACACUGUCGUGUCAGUAGCCGCAGGGUCCCCUUUAAGAUGUGUAUAUCGACACUAG	0.343
UUUCCAUAGUAUCACAUACUAUUAUUUAGUUGUUUACAAGACUCCAAUUUGAAUUCAGGAUUACAGUGCUCCUUUCAUUCUUUCAAACAGAUAACAUAAAAGUUCUGUUA	0.34
AUAUACAAGCCAAAGUGGCAUGUUUUGUGCAUUUGUAAAUGCUGUAUUGGAUAGACUAGCCCCCCCCCCGCCUUUGUUAAAUAGUAUGGCUGUGCUUAAAAGGUUGCAUA	23.4

For quick reference, copied from above (sample 3):
Modification	mean fluorescence intensity [a.u.]
2'F-ANA at 1 3 4 5 6 7 10 12 15	50.4
2'F-ANA at 3 7 12 13 15	1290
2'F-ANA at 4 6 7 8 9 10 11 12 14	61
2'F-ANA at 1 2 4 7 8 9 10 14 15	47.5
2'F-ANA at 8 9 12 13 14	234
